Assay results of several laboratories.
Lines come from different studies, so protocols differ. Values joined by “and” are separate records of one study, mostly repeats; a detail may differ. Numbers after ± are the reported error.
T1: ssDNA, single strand; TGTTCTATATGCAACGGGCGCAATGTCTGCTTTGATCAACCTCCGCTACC
T2: ssDNA, aptamer; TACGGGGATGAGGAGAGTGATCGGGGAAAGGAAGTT
Sequence of UniProt Q14524 (whole entry, looked up): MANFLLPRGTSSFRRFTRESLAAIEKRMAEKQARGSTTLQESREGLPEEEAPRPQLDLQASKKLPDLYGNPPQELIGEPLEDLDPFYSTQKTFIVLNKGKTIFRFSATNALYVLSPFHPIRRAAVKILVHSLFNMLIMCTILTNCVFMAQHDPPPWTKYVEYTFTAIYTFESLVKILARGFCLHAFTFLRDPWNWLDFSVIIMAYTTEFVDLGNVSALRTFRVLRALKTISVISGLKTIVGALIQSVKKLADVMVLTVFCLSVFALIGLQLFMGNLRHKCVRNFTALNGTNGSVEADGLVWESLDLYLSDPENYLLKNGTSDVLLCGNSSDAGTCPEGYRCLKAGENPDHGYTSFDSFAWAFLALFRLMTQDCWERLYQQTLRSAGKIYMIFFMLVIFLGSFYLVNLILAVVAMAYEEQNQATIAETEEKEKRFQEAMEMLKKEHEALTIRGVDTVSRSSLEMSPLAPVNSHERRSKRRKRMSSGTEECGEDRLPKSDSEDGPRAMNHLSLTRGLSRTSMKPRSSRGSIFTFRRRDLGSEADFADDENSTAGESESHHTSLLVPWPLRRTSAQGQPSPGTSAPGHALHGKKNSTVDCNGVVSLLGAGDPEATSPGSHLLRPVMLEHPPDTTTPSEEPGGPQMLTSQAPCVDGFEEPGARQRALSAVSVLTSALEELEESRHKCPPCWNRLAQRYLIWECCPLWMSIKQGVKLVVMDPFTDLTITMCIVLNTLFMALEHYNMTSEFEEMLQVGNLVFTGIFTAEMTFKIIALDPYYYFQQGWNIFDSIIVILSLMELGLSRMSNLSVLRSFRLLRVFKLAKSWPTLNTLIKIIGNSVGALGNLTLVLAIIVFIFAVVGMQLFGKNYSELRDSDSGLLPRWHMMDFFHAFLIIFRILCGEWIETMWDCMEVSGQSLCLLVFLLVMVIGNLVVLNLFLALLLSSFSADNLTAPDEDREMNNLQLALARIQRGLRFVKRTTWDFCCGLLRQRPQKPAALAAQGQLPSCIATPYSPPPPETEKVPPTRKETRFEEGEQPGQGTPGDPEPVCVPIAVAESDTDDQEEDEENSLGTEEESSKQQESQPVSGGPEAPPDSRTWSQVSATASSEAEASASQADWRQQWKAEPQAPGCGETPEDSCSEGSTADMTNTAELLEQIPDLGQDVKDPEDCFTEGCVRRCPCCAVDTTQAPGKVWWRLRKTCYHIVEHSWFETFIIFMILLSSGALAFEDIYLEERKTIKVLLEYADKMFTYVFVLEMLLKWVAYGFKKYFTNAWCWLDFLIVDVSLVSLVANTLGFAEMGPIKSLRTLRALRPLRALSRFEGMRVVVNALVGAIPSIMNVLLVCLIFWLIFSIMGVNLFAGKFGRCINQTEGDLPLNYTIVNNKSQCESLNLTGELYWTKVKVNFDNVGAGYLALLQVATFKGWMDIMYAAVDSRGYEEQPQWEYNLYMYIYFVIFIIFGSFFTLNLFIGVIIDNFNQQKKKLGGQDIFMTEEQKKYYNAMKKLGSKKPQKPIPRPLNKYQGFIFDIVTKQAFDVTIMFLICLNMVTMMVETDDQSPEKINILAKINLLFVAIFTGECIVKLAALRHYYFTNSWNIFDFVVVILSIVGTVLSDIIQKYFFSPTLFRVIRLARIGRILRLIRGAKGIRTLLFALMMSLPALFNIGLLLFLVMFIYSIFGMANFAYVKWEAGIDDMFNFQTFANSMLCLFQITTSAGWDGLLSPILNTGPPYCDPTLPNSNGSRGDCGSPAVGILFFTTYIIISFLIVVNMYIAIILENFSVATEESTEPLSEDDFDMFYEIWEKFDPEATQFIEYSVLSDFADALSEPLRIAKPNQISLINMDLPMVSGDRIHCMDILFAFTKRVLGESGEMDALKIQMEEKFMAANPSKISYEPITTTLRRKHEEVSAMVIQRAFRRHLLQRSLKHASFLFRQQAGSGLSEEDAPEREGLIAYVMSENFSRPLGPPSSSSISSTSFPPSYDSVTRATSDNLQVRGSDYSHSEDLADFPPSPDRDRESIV
Sequence of UniProt P22736 (whole entry, looked up): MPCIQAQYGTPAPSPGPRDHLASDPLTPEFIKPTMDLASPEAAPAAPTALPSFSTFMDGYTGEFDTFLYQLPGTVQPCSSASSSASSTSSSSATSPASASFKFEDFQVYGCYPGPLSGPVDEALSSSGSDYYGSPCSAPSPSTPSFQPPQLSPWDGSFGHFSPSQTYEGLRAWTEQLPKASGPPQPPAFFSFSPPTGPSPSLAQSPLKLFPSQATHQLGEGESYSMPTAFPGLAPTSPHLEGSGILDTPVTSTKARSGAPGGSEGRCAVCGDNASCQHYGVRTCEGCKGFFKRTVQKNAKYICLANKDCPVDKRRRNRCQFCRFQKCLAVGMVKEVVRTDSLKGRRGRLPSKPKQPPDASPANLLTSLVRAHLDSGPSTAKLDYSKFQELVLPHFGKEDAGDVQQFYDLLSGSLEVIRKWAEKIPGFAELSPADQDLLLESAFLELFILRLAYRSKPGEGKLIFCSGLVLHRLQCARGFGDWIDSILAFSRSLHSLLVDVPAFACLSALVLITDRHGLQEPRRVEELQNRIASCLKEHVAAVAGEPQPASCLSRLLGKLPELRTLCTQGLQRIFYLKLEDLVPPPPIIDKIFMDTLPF
Sequence of UniProt P41595 (whole entry, looked up): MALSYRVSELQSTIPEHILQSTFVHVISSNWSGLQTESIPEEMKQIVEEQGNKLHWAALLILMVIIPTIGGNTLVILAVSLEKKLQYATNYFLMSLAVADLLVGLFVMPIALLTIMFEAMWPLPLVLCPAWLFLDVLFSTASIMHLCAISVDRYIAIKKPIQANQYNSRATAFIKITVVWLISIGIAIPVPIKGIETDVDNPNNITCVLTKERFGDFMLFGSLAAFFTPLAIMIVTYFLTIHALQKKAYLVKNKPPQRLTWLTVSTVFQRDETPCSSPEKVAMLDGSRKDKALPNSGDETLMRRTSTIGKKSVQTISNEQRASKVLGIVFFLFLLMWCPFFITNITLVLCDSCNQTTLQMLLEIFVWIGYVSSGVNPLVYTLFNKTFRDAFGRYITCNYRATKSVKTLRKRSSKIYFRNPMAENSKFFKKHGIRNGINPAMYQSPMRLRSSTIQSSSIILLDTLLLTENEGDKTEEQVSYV
Sequence of UniProt P02754 (whole entry, looked up): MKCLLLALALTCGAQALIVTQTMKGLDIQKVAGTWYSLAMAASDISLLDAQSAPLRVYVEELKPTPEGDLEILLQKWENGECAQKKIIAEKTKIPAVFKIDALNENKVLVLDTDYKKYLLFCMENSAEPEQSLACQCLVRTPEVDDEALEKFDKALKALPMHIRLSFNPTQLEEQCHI
Sequence of UniProt Q16774 (whole entry, unmodified, looked up): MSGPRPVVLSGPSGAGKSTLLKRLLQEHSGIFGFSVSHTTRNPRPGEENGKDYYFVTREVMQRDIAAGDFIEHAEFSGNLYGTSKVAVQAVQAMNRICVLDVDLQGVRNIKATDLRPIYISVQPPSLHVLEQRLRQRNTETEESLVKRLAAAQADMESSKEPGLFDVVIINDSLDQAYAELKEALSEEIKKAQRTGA
Sequence of UniProt P19440 (whole entry, looked up): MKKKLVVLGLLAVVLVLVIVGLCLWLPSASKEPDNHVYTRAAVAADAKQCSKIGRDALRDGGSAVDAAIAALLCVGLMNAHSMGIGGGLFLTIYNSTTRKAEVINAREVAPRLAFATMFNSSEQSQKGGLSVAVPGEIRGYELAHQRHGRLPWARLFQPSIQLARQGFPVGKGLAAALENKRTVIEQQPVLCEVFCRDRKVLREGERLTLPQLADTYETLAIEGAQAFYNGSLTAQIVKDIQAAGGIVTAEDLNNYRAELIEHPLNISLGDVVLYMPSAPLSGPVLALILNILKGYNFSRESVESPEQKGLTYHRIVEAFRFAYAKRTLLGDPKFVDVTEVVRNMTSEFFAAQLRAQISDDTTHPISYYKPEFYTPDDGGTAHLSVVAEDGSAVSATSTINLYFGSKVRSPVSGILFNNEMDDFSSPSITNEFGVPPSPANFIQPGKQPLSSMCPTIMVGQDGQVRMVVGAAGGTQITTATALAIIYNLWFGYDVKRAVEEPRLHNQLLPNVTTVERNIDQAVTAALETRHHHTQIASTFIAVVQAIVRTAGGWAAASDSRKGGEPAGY
Sequence of UniProt Q96NY8 (whole entry, looked up): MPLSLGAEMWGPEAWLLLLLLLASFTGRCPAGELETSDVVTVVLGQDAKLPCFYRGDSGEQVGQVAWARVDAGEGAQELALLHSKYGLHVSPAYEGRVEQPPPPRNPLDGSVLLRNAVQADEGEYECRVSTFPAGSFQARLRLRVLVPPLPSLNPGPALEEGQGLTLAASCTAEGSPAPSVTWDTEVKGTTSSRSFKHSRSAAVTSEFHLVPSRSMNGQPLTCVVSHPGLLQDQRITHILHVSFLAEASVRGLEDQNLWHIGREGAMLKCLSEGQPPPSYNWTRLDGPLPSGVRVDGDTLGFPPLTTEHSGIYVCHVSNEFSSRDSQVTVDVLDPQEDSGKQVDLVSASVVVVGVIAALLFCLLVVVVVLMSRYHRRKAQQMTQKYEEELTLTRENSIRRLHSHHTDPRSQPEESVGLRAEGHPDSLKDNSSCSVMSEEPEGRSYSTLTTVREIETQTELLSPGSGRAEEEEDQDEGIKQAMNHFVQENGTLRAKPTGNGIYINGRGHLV
Sequence of UniProt Q07011 (whole entry, looked up): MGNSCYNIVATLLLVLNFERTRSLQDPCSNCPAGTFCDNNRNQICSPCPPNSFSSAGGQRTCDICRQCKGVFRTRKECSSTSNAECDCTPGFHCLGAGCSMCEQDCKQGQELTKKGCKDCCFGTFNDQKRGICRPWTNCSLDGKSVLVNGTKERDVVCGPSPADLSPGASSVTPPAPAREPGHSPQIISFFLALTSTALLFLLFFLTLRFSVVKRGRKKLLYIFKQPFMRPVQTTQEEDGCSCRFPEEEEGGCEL

O=c1nc(SCc2cc(F)cc(C(F)(F)F)c2)nc(SCc2csc3ccc(Cl)cc23)[nH]1 — decatenated DNA (TOP2B (Homo sapiens, UniProt Q02880); decatenation; 7.8 µM, replicate 1): 70.3%
Cc1ccc(OC[C@H]2CN(CCN3CCc4ccccc43)CCO2)cn1 — inhibition (HTR2B (Homo sapiens, UniProt P41595); radioligand binding; concentration not given, together with: [3H]LSD): 23.3%
CN(C)c1ccc(Cc2nnc(NS(=O)(=O)c3ccc(N)cc3)s2)cc1 — Kii (Glutathione hydrolase 1 proenzyme, without transmembrane domain (Homo sapiens, UniProt P19440); GSH hydrolysis, uncompetitive inhibitor; 37 °C, binds gamma-glutamyl enzyme, together with: GSH 5-20 µM): 363 ± 35 µM
COc1cccc2c1C(=O)c1c(O)c3c(c(O)c1C2=O)C[C@@](O)(C(=O)CO)C[C@@H]3O[C@H]1C[C@H](N)[C@H](O)[C@H](C)O1 — binding (T1, ssDNA, single strand; DLS, TEM; qualitative): binds
CCCC[C@@H]1NC(=O)[C@H](Cc2ccc(O)cc2)NC(=O)[C@@H]2CCCN2C(=O)[C@H](CC(=O)O)NC(=O)[C@H](C)NC(=O)[C@H](Cc2ccccc2)NC(=O)[C@@H]2CSCCC(=O)N3CN(CN(C3)C(=O)CCSC[C@@H](C(=O)N[C@@H](CNC(=O)Cn3cc(CCC(=O)NCCC(=O)N(C)CC(=O)N(C)CC(=O)N(C)CC(=O)N(C)CC(=O)N(C)CC(=O)N(C)CC(=O)N(C)CC(=O)N(C)CC(=O)N(C)CC(=O)N(C)CC(=O)N[C@H]4CSCCC(=O)N5CN6CN(C5)C(=O)CCSC[C@H](NC(=O)[C@@H](CC(=O)O)NC(=O)[C@H](Cc5cccc7ccccc57)NC(=O)[C@@H]5CCCN5C4=O)C(=O)N[C@@H](CCSC)C(=O)N[C@@H](CCCCNC(=N)N)C(=O)N[C@@H](CC(=O)O)C(=O)N[C@@H](Cc4c[nH]c5ccccc45)C(=O)N[C@@H](CO)C(=O)N[C@@H]([C@@H](C)O)C(=O)N4CCC[C@H]4C(=O)N4C[C@H](O)C[C@H]4C(=O)N[C@@H](Cc4c[nH]c5ccccc45)C(=O)N[C@H](C(N)=O)CSCCC6=O)nn3)C(N)=O)NC1=O)C(=O)CCSC[C@H](NC(C)=O)C(=O)N[C@@H](CC(C)(C)C)C(=O)N1CCC[C@H]1C(=O)N[C@@H](CCC(=O)O)C(=O)N[C@H](C)C(=O)N1CCC[C@H]1C(=O)N[C@@H](Cc1ccc(O)cc1)C(=O)N2 — Emax (Tumor necrosis factor receptor superfamily member 9/Nectin-4 (Homo sapiens, UniProt Q07011+Q96NY8); reporter gene, agonist; HT-1376 coculture with reporter cells; relative to: background): 42 fold
CC(C)=CCC/C(C)=C/C=C/C(C)=C/C=C/C(C)=C/C=C/C=C(C)/C=C/C=C(C)/C=C/C=C(\C)CCC=C(C)C — Stern-Volmer quenching constant (Beta-lactoglobulin (LGB, Bos taurus, UniProt P02754); fluorescence quenching; 298 K): 6190 ± 2020 L/mol
Nc1ncnc2c1ncn2[C@@H]1O[C@H](COP(=O)(O)O)[C@@H](O)[C@H]1O — Kd (T2, ssDNA, aptamer; molecular beacon fluorescence quenching): 96 µM
O=C(O)c1ccc(Nc2ncc3c(n2)-c2ccc(Cl)cc2C(c2c(F)cccc2F)=NC3)cc1 — remaining activity (PRK2(h); kinase activity; 1 µM): 90%
CCN(CCO)CCCC(C)Nc1ccnc2cc(Cl)ccc12 (stereo not shown) — inactivation slope factor (SCN5A (Homo sapiens, UniProt Q14524); sodium current, whole-cell patch clamp; 30 µM, without ATX-II): 5.68 mV/e-fold and 5.92 mV/e-fold and 6.45 mV/e-fold
CC[C@@H]1[C@H](F)C(=O)N[C@@H]1COc1nccc2cc(C(N)=O)c(OC)cc12 — inhibition (PDPK1 (Homo sapiens, UniProt O15530); ATP-site probe binding, ActivX profiling, item: PDK1; THP-1 cell lysate; 0.2 mM, Lys1 site): 12.1%
Cc1cc(NC(=O)C=Cc2ccccc2)cc(-c2ccnc(N3CCC(O)CC3)c2)c1 — binding response (Nuclear receptor subfamily 4 group A member 1 (NR4A1, Homo sapiens, UniProt P22736); SPR; 10.0 µM): 81.9 RU
COc1cc(CNC(=O)CCCC/C=C/C(C)C)ccc1O — closed time constant (TRPV1 (Homo sapiens, UniProt Q8NER1); channel gating, single-channel inside-out patch; 100 nM, component 3 of four): 8 ms
Nc1nc2c(ncn2[C@@H]2O[C@H](COP(=O)(O)O)[C@@H](O)[C@H]2O)c(=O)[nH]1 — -TΔS (GUK1 (Homo sapiens, UniProt Q16774, D103A); binding, ITC; together with: GMP): 3.1 kcal/mol

A few entries again:
Nc1ncnc2c1ncn2[C@@H]1O[C@H](COP(=O)(O)O)[C@@H](O)[C@H]1O — Kd (T2, ssDNA, aptamer; molecular beacon fluorescence quenching): 96 µM
